# Published values pooled from the literature.
# Numbered parts are unrelated; each lists some results of a single study.
# UniProt P22607, sequence (whole entry, unmodified, looked up): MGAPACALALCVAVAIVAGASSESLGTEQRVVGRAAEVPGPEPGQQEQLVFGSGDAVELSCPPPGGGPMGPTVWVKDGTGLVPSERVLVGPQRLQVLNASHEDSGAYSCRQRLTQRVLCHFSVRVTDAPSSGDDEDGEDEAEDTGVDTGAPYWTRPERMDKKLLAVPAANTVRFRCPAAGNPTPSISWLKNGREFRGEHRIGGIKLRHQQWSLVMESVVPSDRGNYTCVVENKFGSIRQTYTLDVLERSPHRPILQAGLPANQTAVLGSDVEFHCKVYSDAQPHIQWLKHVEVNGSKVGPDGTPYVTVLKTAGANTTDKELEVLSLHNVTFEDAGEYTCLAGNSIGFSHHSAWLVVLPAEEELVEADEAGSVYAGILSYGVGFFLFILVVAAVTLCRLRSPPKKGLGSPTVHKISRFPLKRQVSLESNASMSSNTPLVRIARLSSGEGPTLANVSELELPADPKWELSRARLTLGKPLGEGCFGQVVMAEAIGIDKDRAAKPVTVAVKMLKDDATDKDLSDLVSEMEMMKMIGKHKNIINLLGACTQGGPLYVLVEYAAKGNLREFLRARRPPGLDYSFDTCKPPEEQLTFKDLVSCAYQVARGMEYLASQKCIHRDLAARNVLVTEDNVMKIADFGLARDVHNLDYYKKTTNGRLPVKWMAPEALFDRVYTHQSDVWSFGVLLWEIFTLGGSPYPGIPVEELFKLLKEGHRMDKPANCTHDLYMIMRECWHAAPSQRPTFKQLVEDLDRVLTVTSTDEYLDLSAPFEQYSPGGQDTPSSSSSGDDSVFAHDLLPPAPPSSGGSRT
# UniProt P36896, sequence (whole entry, looked up): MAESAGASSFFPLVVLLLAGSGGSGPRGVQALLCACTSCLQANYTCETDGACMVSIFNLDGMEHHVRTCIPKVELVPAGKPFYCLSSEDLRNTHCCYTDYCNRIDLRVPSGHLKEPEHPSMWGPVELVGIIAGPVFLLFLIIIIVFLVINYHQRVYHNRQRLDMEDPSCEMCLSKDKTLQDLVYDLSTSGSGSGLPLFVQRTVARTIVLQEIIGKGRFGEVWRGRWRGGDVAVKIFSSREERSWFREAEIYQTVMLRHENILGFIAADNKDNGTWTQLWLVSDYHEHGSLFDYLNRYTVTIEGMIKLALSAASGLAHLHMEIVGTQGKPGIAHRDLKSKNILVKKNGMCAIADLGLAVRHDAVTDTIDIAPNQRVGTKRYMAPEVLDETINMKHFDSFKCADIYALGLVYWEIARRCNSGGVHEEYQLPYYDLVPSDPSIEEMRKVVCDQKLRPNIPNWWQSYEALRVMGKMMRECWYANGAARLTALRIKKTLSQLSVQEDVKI
# UniProt Q12866, sequence (whole entry, looked up): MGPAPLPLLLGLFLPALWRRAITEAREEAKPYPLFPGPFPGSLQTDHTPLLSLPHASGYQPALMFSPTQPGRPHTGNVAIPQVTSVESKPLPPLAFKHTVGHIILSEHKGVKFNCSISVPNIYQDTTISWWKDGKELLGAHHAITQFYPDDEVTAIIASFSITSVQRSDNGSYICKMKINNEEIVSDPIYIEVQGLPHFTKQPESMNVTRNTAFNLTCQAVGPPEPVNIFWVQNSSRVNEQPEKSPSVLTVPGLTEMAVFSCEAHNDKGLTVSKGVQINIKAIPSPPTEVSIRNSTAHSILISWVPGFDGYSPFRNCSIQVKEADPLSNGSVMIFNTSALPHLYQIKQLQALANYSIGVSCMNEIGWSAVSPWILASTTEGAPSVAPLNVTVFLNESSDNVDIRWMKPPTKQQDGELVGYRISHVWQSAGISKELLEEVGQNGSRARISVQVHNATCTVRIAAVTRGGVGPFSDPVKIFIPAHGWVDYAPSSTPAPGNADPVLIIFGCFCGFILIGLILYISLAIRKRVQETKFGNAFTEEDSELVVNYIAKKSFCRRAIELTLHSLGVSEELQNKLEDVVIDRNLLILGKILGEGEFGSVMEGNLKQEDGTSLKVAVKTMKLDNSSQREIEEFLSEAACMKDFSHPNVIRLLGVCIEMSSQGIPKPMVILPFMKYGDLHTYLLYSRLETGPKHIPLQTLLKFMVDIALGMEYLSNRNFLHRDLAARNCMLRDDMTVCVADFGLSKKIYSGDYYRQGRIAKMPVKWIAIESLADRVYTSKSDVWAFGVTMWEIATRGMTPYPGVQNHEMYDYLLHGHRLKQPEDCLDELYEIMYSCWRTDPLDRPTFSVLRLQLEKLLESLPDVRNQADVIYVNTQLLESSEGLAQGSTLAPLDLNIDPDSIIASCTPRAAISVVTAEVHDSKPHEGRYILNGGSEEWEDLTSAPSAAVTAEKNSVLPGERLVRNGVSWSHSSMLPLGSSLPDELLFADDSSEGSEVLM

# Block 1 — species: mouse; sample: microsomes or S9; concentration: 2 µM; time: 0.5 h
SMILES,remaining compound [%]
Cc1c(C#N)c2ccccc2n1Cc1nc(Cc2ccccc2)n[nH]1,4.96
Cn1nccc1C1CN(Cc2noc3c2CC(C)(C)CC3)CCO1 (stereo not shown),0.0676
COc1cccc(CN(c2nc3nc(C)c(Cl)c(C)n3n2)S(=O)(=O)c2ccc(Cl)cc2)c1,1.72
NC1=C(c2nc3ccccc3s2)C(=O)CN1CC1COCCO1 (stereo not shown),50.1
Cc1n[nH]c(CN2CCOc3cc(F)c(Br)cc32)n1,11.5
COc1cc(=O)[nH]cc1C(=O)N1CCCN(C)c2ccccc21,46.8
O=C(Cc1c(F)cccc1Cl)N1CCc2n[nH]c(=O)n2CC1,29.2
CC(C)Cc1nc2nccc(-c3ccncc3)n2n1,32.1
CC(C)C[C@H](C(=O)NOC(C)(C)C)N1C(=O)Nc2cc(Cl)cc(Cl)c2S1(=O)=O,2.67

# Block 2 — effect on: enzyme activity; action: inhibitor; concentration: 0.5 µM; reference: control
# Compound: Oc1ccc(-c2nc(-c3ccncc3)c(-c3ccc(F)cc3)[nH]2)cc1
target,remaining activity [%]
"Mitogen-activated protein kinase kinase kinase 5 (MAP3K5, Homo sapiens, UniProt Q99683)",105
"Serine/threonine-protein kinase TBK1 (TBK1, Homo sapiens, UniProt Q9UHD2)",95.2
"Rhodopsin kinase GRK7 (GRK7, Homo sapiens, UniProt Q8WTQ7)",105
"Tyrosine-protein kinase Mer (MERTK, Homo sapiens, UniProt Q12866)",85.2
"Activin receptor type-1B (ACVR1B, Homo sapiens, UniProt P36896)",136
"Tyrosine-protein kinase Lck (LCK, Homo sapiens, UniProt P06239)",92.6
"Macrophage-stimulating protein receptor (MST1R, Homo sapiens, UniProt Q04912)",102
"Tyrosine-protein kinase FRK (FRK, Homo sapiens, UniProt P42685)",90.4
"Angiopoietin-1 receptor (TEK, Homo sapiens, UniProt Q02763)",99.6
"MAP kinase-activated protein kinase 2 (MAPKAPK2, Homo sapiens, UniProt P49137)",99.2
"Ribosomal protein S6 kinase alpha-2 (RPS6KA2, Homo sapiens, UniProt Q15349)",101
"Tyrosine-protein kinase ABL2 (ABL2, Homo sapiens, UniProt P42684)",91.1
"Ephrin type-A receptor 3 (EPHA3, Homo sapiens, UniProt P29320)",99
"Serine/threonine-protein kinase ULK2 (ULK2, Homo sapiens, UniProt Q8IYT8)",97.3
"Mitogen-activated protein kinase 3 (MAPK3, Homo sapiens, UniProt P27361)",101
"Mitogen-activated protein kinase kinase kinase 14 (MAP3K14, Homo sapiens, UniProt Q99558)",115
"Fibroblast growth factor receptor 3 (FGFR3, Homo sapiens, UniProt P22607)",99.2
"Dual specificity mitogen-activated protein kinase kinase 2 (MAP2K2, Homo sapiens, UniProt P36507)",101
"Serine/threonine-protein kinase A-Raf (ARAF, Homo sapiens, UniProt P10398)",31.1
"Serine/threonine-protein kinase TAO2 (TAOK2, Homo sapiens, UniProt Q9UL54)",94.7
"Casein kinase I isoform gamma-2 (CSNK1G2, Homo sapiens, UniProt P78368)",91.9
"Serine/threonine-protein kinase ULK3 (ULK3, Homo sapiens, UniProt Q6PHR2)",85.5
"Casein kinase I isoform gamma-3 (CSNK1G3, Homo sapiens, UniProt Q9Y6M4)",102
"Glycogen synthase kinase-3 beta (GSK3B, Homo sapiens, UniProt P49841)",76.6

# Block 3 — effect on: enzyme activity; action: inhibitor; concentration: 77 µM; reference: untreated
# Target: DNA polymerase theta, ATPase domain (POLQ, Homo sapiens, UniProt O75417)
# UniProt O75417, sequence (whole entry, unmodified, looked up): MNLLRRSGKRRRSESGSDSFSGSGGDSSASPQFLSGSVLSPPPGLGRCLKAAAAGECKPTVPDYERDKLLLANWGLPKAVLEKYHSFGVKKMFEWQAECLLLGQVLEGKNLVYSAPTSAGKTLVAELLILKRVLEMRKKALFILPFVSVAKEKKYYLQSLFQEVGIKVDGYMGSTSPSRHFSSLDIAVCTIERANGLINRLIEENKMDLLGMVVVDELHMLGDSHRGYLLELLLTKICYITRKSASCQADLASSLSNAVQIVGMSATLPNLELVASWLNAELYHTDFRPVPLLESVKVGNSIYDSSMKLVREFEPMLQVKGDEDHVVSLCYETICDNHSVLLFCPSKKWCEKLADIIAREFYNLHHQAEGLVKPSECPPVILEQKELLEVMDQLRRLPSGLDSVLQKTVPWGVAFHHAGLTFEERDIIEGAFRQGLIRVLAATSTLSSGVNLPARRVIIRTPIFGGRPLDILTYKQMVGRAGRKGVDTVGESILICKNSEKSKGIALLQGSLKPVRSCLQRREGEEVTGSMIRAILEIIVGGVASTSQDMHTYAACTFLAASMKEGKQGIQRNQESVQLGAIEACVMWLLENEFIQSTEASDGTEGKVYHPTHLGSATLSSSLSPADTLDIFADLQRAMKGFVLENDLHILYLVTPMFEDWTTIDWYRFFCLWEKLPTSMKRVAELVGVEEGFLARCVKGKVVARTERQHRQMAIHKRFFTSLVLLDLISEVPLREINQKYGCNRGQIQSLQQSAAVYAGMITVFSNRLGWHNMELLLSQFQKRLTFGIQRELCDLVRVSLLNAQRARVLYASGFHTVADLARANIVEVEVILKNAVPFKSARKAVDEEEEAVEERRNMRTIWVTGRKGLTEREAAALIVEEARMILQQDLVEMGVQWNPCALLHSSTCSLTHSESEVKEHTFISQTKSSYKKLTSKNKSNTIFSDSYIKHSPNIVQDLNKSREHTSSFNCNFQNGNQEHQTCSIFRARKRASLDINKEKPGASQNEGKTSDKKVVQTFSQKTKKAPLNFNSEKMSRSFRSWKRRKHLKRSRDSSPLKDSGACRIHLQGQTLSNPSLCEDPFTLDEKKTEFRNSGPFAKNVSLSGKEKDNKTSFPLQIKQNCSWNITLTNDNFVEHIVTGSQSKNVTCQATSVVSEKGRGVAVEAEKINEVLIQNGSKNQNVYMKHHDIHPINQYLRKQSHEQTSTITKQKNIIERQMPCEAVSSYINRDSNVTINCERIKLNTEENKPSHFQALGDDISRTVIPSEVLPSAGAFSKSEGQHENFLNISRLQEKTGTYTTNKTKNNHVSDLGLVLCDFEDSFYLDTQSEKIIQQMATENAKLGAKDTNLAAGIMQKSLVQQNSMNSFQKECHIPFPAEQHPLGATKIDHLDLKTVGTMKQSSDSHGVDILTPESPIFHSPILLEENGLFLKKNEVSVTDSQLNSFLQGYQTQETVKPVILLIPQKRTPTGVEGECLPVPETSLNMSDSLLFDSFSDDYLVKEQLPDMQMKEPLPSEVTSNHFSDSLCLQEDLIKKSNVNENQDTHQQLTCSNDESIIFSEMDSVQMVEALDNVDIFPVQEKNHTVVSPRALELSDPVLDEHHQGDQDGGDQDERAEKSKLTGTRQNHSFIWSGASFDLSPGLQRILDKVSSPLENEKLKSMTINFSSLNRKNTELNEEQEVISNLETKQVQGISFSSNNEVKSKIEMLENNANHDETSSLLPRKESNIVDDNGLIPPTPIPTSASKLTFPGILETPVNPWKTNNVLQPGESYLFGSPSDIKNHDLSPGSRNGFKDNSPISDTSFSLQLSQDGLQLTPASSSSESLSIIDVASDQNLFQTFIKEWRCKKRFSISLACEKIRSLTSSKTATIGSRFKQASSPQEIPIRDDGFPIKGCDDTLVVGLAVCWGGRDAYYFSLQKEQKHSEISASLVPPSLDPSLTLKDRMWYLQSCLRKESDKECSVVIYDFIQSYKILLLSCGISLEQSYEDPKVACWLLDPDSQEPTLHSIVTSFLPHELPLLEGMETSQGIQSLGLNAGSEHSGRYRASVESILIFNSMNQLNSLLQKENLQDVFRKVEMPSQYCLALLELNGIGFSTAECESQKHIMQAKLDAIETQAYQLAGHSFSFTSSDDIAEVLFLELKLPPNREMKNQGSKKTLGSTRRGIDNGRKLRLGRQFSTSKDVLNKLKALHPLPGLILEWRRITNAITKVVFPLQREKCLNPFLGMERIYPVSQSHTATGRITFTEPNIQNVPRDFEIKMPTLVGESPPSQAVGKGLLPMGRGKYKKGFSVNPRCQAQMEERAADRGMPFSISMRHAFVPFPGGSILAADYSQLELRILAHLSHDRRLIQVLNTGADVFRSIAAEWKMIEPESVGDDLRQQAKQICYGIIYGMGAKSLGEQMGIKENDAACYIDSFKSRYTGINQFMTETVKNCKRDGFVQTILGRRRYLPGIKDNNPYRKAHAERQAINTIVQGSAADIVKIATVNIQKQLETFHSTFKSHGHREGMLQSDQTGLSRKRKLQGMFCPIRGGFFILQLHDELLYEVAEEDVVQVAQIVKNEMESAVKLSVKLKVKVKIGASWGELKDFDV
SMILES,remaining activity [%]
Cc1ccc(S(=O)(=O)n2c(N)nc3ccccc32)cc1,99.6
Nc1nc(O)c(C2=C3C(=Nc4ccccc43)C(=O)NCC2)[nH]1,104
C/C=C1\NC(=O)[C@H]2CSSCC/C=C/[C@H](CC(=O)N[C@H](C(C)C)C(=O)N2)OC(=O)[C@H](C(C)C)NC1=O,101
CNC(=O)[C@H]1O[C@@H](n2cnc3c(NCc4ccc(N)cc4)ncnc32)[C@H](O)[C@@H]1O,97.9
CC(C)N1CCN(c2ccc(OC[C@H]3CO[C@](Cn4cncn4)(c4ccc(Cl)cc4Cl)O3)cc2)CC1 (racemic),110
c1ccc(Cn2c(-c3ccc(OC[C@H](C4CCNCC4)n4c(-c5ccccc5)nc5ccccc54)cc3)nc3ccccc32)cc1,93.9
CC1(C)[C@@H](O)CC[C@]2(C)[C@H]3C(=O)C=C4[C@@H]5C[C@@](C)(C(=O)O)CC[C@]5(C)CC[C@@]4(C)[C@]3(C)CC[C@@H]12,105

# Block 4 — method: phase 2a trial; species: idiopathic pulmonary fibrosis patients
# Structure (SMILES): CC(C)n1cnc(-c2ccc(F)cc2)c1-c1ncc(C(=O)Nc2ccc(N3CCN(C)CC3)cc2)[nH]1
dose,notes,patients with abdominal discomfort
60 mg once daily,adverse event grade 5,0%
dose not given,"adverse event grade 5, all dose arms pooled",0%
dose not given,"adverse event grade 2, all dose arms pooled",0%
60 mg once daily,adverse event grade 1,0%
dose not given,"adverse event grade 3, all dose arms pooled",0%
60 mg once daily,adverse event grade 2,0%
dose not given,"adverse event grade 4, all dose arms pooled",0%

# Block 5 — effect on: cell-free assay; method: competition with immobilised ligand; concentration: 1 µM
# SMILES: CC(=O)Nc1c(C(C)=O)c(=O)n(C)c2nc(-c3ccc(Cl)cc3Cl)c(-c3ccc(Cl)cc3)cc12
target,remaining binding [%]
"Serine/threonine-protein kinase WNK2 (WNK2, Homo sapiens, UniProt Q9Y3S1)",95
"Serine/threonine-protein kinase PAK 6 (PAK6, Homo sapiens, UniProt Q9NQU5)",100
"Tyrosine-protein kinase ITK/TSK (ITK, Homo sapiens, UniProt Q08881)",100
"Misshapen-like kinase 1 (MINK1, Homo sapiens, UniProt Q8N4C8)",100
"Fibroblast growth factor receptor 3 (FGFR3, Homo sapiens, UniProt P22607, G697C)",100
